Measurements gathered from unrelated publications.
Every numbered part comes from another study and shows a few of its results, in no order. Positions count from the first letter of the parent shown.
UniProt P35916, sequence (whole entry, looked up): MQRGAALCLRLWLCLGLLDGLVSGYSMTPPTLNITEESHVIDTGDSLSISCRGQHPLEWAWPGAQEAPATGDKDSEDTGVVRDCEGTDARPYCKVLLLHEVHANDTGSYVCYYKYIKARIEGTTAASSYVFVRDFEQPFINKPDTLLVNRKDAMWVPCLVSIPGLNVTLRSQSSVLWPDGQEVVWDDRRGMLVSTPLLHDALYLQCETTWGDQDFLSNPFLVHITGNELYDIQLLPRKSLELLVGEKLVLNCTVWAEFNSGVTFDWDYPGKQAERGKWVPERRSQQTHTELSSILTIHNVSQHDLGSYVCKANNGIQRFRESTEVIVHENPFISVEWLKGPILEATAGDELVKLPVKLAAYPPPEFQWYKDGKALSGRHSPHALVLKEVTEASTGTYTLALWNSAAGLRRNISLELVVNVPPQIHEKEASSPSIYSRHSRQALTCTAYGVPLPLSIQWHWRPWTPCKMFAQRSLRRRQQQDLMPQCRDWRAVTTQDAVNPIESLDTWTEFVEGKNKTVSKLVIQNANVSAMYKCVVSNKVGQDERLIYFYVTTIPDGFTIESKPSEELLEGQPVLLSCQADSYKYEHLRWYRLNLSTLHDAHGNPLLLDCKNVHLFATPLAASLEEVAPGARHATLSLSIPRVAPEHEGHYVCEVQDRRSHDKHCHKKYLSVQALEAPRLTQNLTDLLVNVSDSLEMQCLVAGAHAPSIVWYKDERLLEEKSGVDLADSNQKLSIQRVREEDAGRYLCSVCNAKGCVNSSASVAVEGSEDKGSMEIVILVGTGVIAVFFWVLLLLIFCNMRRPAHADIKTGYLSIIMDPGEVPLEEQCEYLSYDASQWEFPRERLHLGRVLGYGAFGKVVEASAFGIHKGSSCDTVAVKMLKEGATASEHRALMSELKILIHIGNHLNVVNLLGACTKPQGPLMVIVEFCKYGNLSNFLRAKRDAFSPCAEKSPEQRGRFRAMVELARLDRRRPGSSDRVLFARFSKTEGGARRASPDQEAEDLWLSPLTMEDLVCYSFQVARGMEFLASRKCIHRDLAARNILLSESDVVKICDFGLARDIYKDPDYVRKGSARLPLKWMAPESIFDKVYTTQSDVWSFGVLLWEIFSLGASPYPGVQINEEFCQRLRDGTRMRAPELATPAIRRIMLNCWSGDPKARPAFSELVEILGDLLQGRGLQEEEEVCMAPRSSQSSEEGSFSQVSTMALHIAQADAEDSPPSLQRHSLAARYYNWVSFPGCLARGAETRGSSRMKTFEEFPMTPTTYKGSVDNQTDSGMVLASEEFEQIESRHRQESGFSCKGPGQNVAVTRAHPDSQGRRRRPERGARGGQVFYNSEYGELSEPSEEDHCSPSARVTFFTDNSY

Study 1 — target: CCNE2, cyclin fold, Cln2 fusion (human); method: yeast growth competition, sequencing; medium: yeast; setting: strong parent motif; baseline: not given; reading: higher = stronger binding
Parent: viral docking peptide; KKVKRRLFETREL; partner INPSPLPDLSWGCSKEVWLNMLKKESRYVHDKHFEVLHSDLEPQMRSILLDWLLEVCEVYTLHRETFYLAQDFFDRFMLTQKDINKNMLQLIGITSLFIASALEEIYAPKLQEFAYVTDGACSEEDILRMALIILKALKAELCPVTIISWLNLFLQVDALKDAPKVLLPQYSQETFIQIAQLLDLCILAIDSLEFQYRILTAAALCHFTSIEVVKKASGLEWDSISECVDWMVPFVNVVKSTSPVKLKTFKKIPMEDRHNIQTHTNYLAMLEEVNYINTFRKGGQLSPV
Variant	normalised enrichment score
KKVKRRLAETREL [F8A]	0.491
KKVKARLFETREL [R5A]	0.737
KKAKRRLFETREL [V3A]	3.08
KKVKKRLFETREL [R5K]	1.42
KKVKRRLFETREA [L13A]	4.17
KAVKRRLFETREL [K2A]	4.2
KKVKRRLFEAREL [T10A]	3.92
KKVKRRLLETREL [F8L]	0.514

Study 2 — read-out: binding; method: phage display NGS; form: peptide; baseline: input library
Target: UDP-N-acetylglucosamine--peptide N-acetylglucosaminyltransferase 110 kDa subunit (OGT, Homo sapiens, UniProt O15294)
UniProt O15294, sequence (whole entry, looked up): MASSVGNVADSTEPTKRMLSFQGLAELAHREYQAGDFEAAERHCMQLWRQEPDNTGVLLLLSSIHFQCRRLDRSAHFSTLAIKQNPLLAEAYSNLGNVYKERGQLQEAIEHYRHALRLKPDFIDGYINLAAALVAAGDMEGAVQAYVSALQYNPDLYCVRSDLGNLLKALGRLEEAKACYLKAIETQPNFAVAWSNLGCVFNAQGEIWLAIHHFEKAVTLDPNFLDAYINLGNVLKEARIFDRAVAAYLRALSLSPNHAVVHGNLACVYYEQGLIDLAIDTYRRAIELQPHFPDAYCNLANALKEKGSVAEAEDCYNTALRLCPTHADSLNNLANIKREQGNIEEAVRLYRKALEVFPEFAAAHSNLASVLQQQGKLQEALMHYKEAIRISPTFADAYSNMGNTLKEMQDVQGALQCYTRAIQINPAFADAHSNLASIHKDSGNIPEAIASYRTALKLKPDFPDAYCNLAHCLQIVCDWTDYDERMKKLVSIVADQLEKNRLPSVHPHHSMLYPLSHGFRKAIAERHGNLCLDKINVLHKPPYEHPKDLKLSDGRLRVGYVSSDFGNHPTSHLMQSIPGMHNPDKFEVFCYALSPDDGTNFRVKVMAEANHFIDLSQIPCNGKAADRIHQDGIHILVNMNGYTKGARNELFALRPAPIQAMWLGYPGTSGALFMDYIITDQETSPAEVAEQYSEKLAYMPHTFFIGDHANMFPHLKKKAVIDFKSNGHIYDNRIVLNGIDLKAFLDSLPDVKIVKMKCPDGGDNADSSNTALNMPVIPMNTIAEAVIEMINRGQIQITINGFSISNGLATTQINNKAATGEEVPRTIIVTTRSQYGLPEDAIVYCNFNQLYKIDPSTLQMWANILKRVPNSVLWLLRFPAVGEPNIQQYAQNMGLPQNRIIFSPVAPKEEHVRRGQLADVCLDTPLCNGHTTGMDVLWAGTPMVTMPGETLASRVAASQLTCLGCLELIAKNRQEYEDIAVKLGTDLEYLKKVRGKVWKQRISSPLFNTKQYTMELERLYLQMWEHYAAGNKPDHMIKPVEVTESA
Molecule	minimum log2 enrichment ratio
QPQIHLHHHPSYTGR	1.88
TDKHQHMHHVTHVA	3.68
HQSPHHRTVEHQVT	2.32
VFTPSYQIYIKPRQF	2.71
YDKVMPEYQIKYTTS	3.85
YTDNEEIIFHHHQVA	1.89
HTYHHLLHAEDGHSY	3.89
NPPHSVHHTQIHRHN	2.8

Other studies, line by line
SMILES	target or system	assay	conditions	scale	quantity	result
CC(CCc1ccccc1)NC(C)C(O)c1ccc(O)cc1 (stereo not drawn)	mouse MPNST tumor cells	high-content nuclear imaging, refers to: cell number	10 µM, 12 h, mean of 2 replicates	baseline: plate mean, higher = more cells	nuclei count	-0.982 z-score
COC[C@H]1OC(=O)c2coc3c2[C@@]1(C)C1=C(C3=O)[C@@H]2CCC(=O)[C@@]2(C)C[C@H]1OC(C)=O	FLT4 (Homo sapiens, UniProt P35916)	enzyme activity, inhibitor	0.5 µM	baseline: control	remaining activity	113%
